Experimental data of several laboratories.
Parts stem from different laboratories: compare values within a part only. Substitutions count along the parent as printed.

Series 1
Target: CCNF, cyclin fold, Cln2 fusion (human)
Method: yeast growth competition, sequencing
Medium: yeast
Setting: strong parent motif
Relative to: not given
Direction: higher = stronger binding
Parent: WEE1 docking peptide (human); CTLRQKLIFSPCS
| Substitution | normalised enrichment score |
| --- | --- |
| L3A | 4.96 |
| R4A | 2.59 |
| F9A | 0.0636 |
| C12A | 3.67 |
| L7A | 0.589 |
| P11A | 1.13 |

Series 2
Target: RING finger protein unkempt homolog, zinc fingers 1-6, GST-SBP tag (UNK, Homo sapiens, UniProt Q9C0B0, residues 30-357)
UniProt Q9C0B0, sequence (30-357, looked up): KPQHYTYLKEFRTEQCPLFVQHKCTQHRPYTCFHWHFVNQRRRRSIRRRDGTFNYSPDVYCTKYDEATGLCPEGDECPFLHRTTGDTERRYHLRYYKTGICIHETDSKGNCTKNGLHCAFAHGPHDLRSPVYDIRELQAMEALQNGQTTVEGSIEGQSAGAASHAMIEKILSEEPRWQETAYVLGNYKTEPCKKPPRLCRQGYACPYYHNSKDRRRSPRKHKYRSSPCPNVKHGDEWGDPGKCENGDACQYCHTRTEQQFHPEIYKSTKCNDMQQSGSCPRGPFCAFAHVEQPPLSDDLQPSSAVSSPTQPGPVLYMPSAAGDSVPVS
Method: RNA Bind-n-Seq
Molecule type: RNA
Medium: in vitro
Concentration: not given
Setting: RNA with constant flanks, human-mouse chimeric sites, ends assumed
Relative to: input RNA pool
Direction: higher = stronger binding
Constant ends, left off below: GGGAGUUCUACAGUCCGACGAUC … CAACAGAGGAUUGAGCAUCA
| Sequence | bound/input enrichment [ratio] |
| --- | --- |
| UAAAUUAGGGCUGCCGUUUUCUGUUUCGCCCUGAGCUGCGGAAAGCCAGAAGAUUUUAUCUAGCUUAUACAAGGCUGCUGGUGUUCCCUCUUUUUUUCCACGAGGGUGUUUUUGGCUGCA | 0.473 |
| AUUGUUGAAGCGAAUCCACUUUUAGAAGCAUUUGGAAAUGCAAAGACUGUUCGCAACAAUAAUAGCAGUCGAUUUGGGAAAUUUGUAGAAAUUCAUUUCAAUGAAAAGAGUUCGGUUGUU | 0.356 |
| GCUCCUCCCCGCUCUGCAGCCUGGGGACACUGGGCUGGGACCAGAAUCUUAUUUUUUUUUAAAACUCUCAGUGUAACUGUAUCCCGUUUUUUUCUUUUUUUUUUAAAUAGUGUAUUUUUU | 41.3 |
| CUGGGUAUCAUCUCUCGUGCUGUUAGACACCUGUUCAAGAGUAUUGAUGAGAAAAAGCACAUAGCAAUUAAAAACGGGCUGCCCCCUCCUGAAUUCAAAGUGAAUGCCCAGUUCCUAGAG | 0.948 |
| UUAUCCAAGACUCAACGAAAGACUCCAACGGUUAUUCAUAAACAUUACCAAAUACAUCGCAUUAGACAUUUUUAUAUGAGAAAAGUCAAAUUUACUCAACAGAAUUACCAUGACAGACUG | 4.9 |
| CUGGCACUCUAUCAGAUAUAUUAAUUUUUUAAUGUAGAUGUAAUUUUAAAAAUGAAUGGCUAGUUUACACGUUUAACUAGGGUUUUACUAUAUAUGUGUACAUAUGUAUAUGUAUUUAUA | 3.95 |
| CAGUCCCCGUGUCCCAGUGCAGGACGAUGUGAACAAAAACUCAAAGCGGACCCUCUAUUGUAGUUCUUGAUUCUCGAAAUGUGCUAUUGUUUUUAAACUUUUUUUUUAAAAGAAAAGAGA | 0.31 |
| GCGAACAGCCAUUAGGAAAUGCUGGUAAUUUCAGUCACUUGCUGAUGACUUCUGAUGUCCCAGCAAAUGUUGGCAUUGUUGACUGCUGAGAAGAUACUUCUGAGGACCCACGUCUAAGGU | 0.176 |

Series 3
Target: RNA binding protein fox-1 homolog 2, RRM domain, GST-SBP tag (RBFOX2, Homo sapiens, UniProt O43251-10, residues 100-194)
Method: RNA Bind-n-Seq
Molecule type: RNA
Medium: in vitro
Concentration: 365 nM
Setting: natural RNA segment, single round, ends assumed
Relative to: no-protein control
Direction: higher = stronger binding
Constant ends, left off below: GGGAGUUCUACAGUCCGACGAUC … UGGAAUUCUCGGGUGCCAA
Residues (chain): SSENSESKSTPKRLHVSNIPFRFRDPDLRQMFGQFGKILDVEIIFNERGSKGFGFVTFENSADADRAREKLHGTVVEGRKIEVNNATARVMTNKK
| Sequence | RBNS enrichment (R) |
| --- | --- |
| GCAGUGGGGUAGAUCUCAUGAGGUUACCUACAGCUACUUCAUGUUCUUACACUGUAAGCCUUGUUGCUUUGCCCCAACAAUUGUAAUUUGAUUAUAGCUAUGAGCCUUAU | 0.365 |
| UUUCCUGGGACCAAAUAAUGAGCACCUGCUGGAGUCUGGGCAGAGCAGCCUGGCUCCCUUCUACCCCAGAGCUCCCAAAUGCCGGCCUUGCAUUUGGAGGGUUCAUGGCC | 0.344 |
| UAAUUAGAAGCAUCUCCAGGCCUGGAGAAAAUUUGAACUUAUGGUCCCGGGCUGCUUUGUAGUGAGCCUGUUUCCACUGCUCUGGUAGCUGAGCCAGGCUAUGAGGAAAC | 0.548 |
| GGAGCAAGUGCCAAGCAGAACAGACCUUAUCAUCUGGGUAACAGACUUCUCAGUGUUGGUGCUGUGUCUGUUAGAGCCUUAGAGCAAGUUAAGCACUUCCUUGGUGUGGG | 0.264 |
| UAAUAGAGUGGUAUGACAUGGCACUAAAAAUAUAAAUUUUUGUUGUAAGUCAGGAUUGGAGUAAGCUGGAAAAGUAUGUUUAGGCAAAUCUUGGAGAAAACCAACCAUAA | 1.17 |
| UAGAGCUUCUCAGAAACCCUAAUAGGCAAGUAUUAUCUUGAUUUUGCAGAUGUGAAAGCUAAGACCAUGAACCAUGUGAGAUUCCAAACCAAAUAAGCUUGCUGCCAUGG | 0.464 |
| UGCAUAAAUCGAUUAGUCUGCUGUUGCUUAAGGCAGCAGCCCCAGGCAGCAUUUAAGCGGGAUCCUUAGCAAGACAGAAUCCAGCAAAACCCUUUCCCCUCUCAAGCCAG | 0.514 |
| ACUGCACGGCUGCUGAUUGGUCUUCUAUCUCCUGAAGUUUACUCAUGUUCUUAAAACUCCUGGUGACUUUGUUCUUUUGCCAACGUAGAAAGCACAGUGGACGGGUUGUG | 0.735 |

Series 4
Target: Myc proto-oncogene protein, bHLH-zipper, MAX partner unstated (MYC, Homo sapiens, UniProt P01106, residues 368-449)
UniProt P01106, sequence (368-449, looked up): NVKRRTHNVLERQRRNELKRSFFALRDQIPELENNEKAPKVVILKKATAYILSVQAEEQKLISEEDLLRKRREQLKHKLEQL
Method: protein-binding microarray
Molecule type: double-stranded DNA, one strand shown
Medium: in vitro
Concentration: not given
Setting: k-mer, scored over probes, only values ≥0.25
Direction: higher = stronger binding
| Sequence | E-score |
| --- | --- |
| CGCGTTAC | 0.281 |
| AGCCCATG | 0.264 |
| CAGCACAC | 0.262 |
| CGTGGTAG | 0.38 |
| ATGTGTCC | 0.345 |
| CATATGGG | 0.337 |
| ATCCCACG | 0.339 |
| CGCCTCAC | 0.263 |
| AGGTGGTG | 0.258 |
| ATGCCGCA | 0.308 |
| GCATGCGA | 0.415 |
| CGCGCATA | 0.277 |
| TAACACGA | 0.31 |
| AAGCATGT | 0.412 |
| ACCATATG | 0.402 |
| AACCACGG | 0.251 |
| ATGCAACG | 0.258 |
| ATTCCATG | 0.261 |

Single results of other studies
| Substance | target | test | system | setting | how to read | endpoint | result |
| --- | --- | --- | --- | --- | --- | --- | --- |
| PhoQ, residues 284 288 289 292 302 303 TLMATV | PhoP, residues 12 14 15 18 19 LQHIR (Escherichia coli, UniProt P23836) | Sort-seq, measured: YFP reporter | E. coli | PhoQ-PhoP variant library, with: 10 µM Mg2+ | relative to: high Mg2+ state, higher = stronger signaling | fold induction | 4.28 |

For quick reference, copied from above (series 2):
| Sequence | bound/input enrichment [ratio] |
| --- | --- |
| GCUCCUCCCCGCUCUGCAGCCUGGGGACACUGGGCUGGGACCAGAAUCUUAUUUUUUUUUAAAACUCUCAGUGUAACUGUAUCCCGUUUUUUUCUUUUUUUUUUAAAUAGUGUAUUUUUU | 41.3 |
| CUGGGUAUCAUCUCUCGUGCUGUUAGACACCUGUUCAAGAGUAUUGAUGAGAAAAAGCACAUAGCAAUUAAAAACGGGCUGCCCCCUCCUGAAUUCAAAGUGAAUGCCCAGUUCCUAGAG | 0.948 |
| UUAUCCAAGACUCAACGAAAGACUCCAACGGUUAUUCAUAAACAUUACCAAAUACAUCGCAUUAGACAUUUUUAUAUGAGAAAAGUCAAAUUUACUCAACAGAAUUACCAUGACAGACUG | 4.9 |
| CUGGCACUCUAUCAGAUAUAUUAAUUUUUUAAUGUAGAUGUAAUUUUAAAAAUGAAUGGCUAGUUUACACGUUUAACUAGGGUUUUACUAUAUAUGUGUACAUAUGUAUAUGUAUUUAUA | 3.95 |
